Measurements from different studies.
Compare with care: the assays were run in different laboratories. “And” joins repeats or separate records; there may be more than shown. ± marks the error that the study gave.
CDK2 with cyclin A: Cyclin-dependent kinase 2, with cyclin A (CDK2, Homo sapiens, UniProt P24941)
MBLAC2: MBLAC2 (Homo sapiens, UniProt Q68D91)
Chain of UniProt Q68D91 (whole entry, looked up): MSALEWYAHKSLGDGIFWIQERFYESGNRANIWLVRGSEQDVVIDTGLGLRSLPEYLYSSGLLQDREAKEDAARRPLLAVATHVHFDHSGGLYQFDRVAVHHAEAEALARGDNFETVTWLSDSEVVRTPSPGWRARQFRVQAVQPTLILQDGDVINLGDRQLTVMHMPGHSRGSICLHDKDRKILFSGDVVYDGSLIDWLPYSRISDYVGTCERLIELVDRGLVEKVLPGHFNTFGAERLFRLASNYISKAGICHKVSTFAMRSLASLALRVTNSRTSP
Chain of UniProt A4D1P6 (whole entry, looked up): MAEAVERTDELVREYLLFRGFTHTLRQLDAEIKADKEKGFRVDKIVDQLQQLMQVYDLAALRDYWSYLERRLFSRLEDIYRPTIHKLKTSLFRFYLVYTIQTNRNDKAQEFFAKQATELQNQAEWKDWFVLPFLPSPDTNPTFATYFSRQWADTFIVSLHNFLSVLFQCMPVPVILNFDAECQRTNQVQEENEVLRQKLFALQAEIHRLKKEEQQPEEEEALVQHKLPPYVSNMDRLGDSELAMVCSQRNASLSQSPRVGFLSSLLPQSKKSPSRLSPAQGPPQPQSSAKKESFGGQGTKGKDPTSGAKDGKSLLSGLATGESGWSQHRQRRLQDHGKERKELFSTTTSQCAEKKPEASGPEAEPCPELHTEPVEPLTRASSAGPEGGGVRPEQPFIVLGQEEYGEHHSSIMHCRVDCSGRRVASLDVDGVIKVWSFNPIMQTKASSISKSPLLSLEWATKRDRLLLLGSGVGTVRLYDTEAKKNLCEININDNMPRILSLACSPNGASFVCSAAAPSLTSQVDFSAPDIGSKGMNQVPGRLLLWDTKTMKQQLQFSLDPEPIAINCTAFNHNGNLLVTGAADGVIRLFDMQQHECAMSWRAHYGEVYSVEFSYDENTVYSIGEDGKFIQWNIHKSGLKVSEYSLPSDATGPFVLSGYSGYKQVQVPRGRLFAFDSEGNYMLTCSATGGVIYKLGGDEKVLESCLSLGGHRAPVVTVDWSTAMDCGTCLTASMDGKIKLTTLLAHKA
Chain of UniProt Q9GZZ1 (whole entry, looked up): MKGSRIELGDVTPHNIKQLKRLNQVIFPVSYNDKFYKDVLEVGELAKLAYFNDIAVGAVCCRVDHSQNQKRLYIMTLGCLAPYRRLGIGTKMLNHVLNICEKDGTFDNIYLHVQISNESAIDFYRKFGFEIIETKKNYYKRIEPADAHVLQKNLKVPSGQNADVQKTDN

Cc1c(NC(=O)C2CCCN2S(=O)(=O)c2ccccc2)c(=O)n(-c2ccccc2)n1C (stereo not drawn)  Kd (CDK2 with cyclin A): > 100 µM
CCN(CC)Cc1ccc2cc(COC(=O)Nc3ccc(C(=O)NO)cc3)ccc2c1  Kd (MBLAC2; inhibitor, competition pulldown; SW620 and MV4-11 lysate; 1 h): 1.81 µM
CC(C)(COP(=O)(O)OP(=O)(O)OC[C@H]1O[C@@H](n2cnc3c(N)ncnc32)[C@H](O)[C@@H]1OP(=O)(O)O)[C@@H](O)C(=O)NCCC(=O)NCCS  Kd (N-alpha-acetyltransferase 50 (Homo sapiens, UniProt Q9GZZ1); competition pulldown MS; SW-620 cell lysate): 4.24 µM
Nc1cc(F)ccc1NC(=O)c1ccc(CNC(=O)/C=C/c2cccnc2)cc1  Kd (MBLAC2; inhibitor, competition pulldown; SW620 and MV4-11 lysate; 1 h): > 30.2 µM
O=S(=O)(NCc1ccccn1)c1ccc(Cl)c(Cl)c1Cl  Kd (CDK2 with cyclin A): > 100 µM
CN1CCc2c(c3ccccc3n2Cc2ccc(C(=O)NO)cc2)C1  Kd (MBLAC2; inhibitor, competition pulldown; SW620 and MV4-11 lysate; 1 h): 0.489 µM
O=S(=O)(O)C[C@H](O)CO  Kd (Uncharacterized protein (Pelagibacter ubique, UniProt Q4FMA9); binding, isothermal titration calorimetry; Candidatus Pelagibacter ubique; with: CaCl2 10 mM): 4.94 ± 1.36 µM
CCOc1ccc2nc(SCC(=O)Nc3c(C)n(C)n(-c4ccccc4)c3=O)sc2c1  Kd (CDK2 (Homo sapiens, UniProt P24941); binding): > 100 µM
N#Cc1cccc2c1CC[C@H]2NC(=O)c1ccc(SCc2cn3ccccc3n2)cc1  Kd (WD repeat-containing protein 91, residues 392–747 (Homo sapiens, UniProt A4D1P6); SPR): 5.8 µM and 5.3 µM

Some of these lines once more:
O=S(=O)(NCc1ccccn1)c1ccc(Cl)c(Cl)c1Cl  Kd (CDK2 with cyclin A): > 100 µM
